# Experimental data of several laboratories.
# A part holds a random share of what one study measured. Values joined by “and” are separate records of one study, mostly repeats; a detail may differ.

# Set 1
# SMILES: COc1cc(C(=O)N2CCC(N3CCN(C)CC3)CC2)ccc1Nc1ncc2c(n1)N(C)c1ccccc1C(=O)N2C
target or system,assay,test system,setting,inhibition [%]
NEK4 (mouse),"probe labelling, KiNativ, item: DLkTQNVFLTR peptide, LYS2 site",brain tissue lysate (mouse),"0.1 µM, together with: ATP acyl-phosphate probe",-4.3
PKD2 human,KiNativ profiling,human PBMC,"1 µM, LYS1 site, together with: ADP acyl phosphate probe",5.2
CDK5 (mouse),"probe labelling, KiNativ, item: DLkPQNLLINR peptide, LYS2 site",brain tissue lysate (mouse),"0.1 µM, together with: ATP acyl-phosphate probe",-4.7
human PBMC,"probe labeling, inhibitor, KiNativ profiling, item: LTDFGLSkESIDHEKK",cell lysate,"concentration not given, domain 1, activation loop site, together with: ADP acyl-phosphate probe 1 µM",-0.4
MAP3K5 and MAP3K6 mouse,KiNativ profiling,mouse brain lysate,"1 µM, LYS1 site, together with: ADP acyl phosphate probe",4.8
mouse FAK,"probe labelling, KiNativ ATP probe",mouse brain lysate,1 µM,9.6

# Set 2 — observed: enzyme activity; mode: inhibitor; concentration: 10 µM
# Target: Calcium/calmodulin-dependent protein kinase type II subunit alpha (CAMK2A, Homo sapiens, UniProt Q9UQM7)
# Chain of UniProt Q9UQM7 (whole entry, looked up): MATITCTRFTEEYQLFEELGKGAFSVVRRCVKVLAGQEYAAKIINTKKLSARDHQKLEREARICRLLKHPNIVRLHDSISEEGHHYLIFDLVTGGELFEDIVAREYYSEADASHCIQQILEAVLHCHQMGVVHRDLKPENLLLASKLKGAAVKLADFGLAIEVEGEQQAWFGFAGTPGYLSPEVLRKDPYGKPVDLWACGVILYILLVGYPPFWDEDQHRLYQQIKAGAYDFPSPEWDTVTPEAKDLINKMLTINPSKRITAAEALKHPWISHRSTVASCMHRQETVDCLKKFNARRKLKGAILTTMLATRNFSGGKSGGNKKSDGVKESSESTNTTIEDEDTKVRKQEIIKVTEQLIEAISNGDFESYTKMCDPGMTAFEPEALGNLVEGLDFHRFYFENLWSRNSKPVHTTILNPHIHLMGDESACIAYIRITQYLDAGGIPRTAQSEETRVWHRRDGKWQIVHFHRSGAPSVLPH
Structure (SMILES),inhibition [%]
COc1cc(C(=O)NC2CCCNC2)cc(OC)c1OC (stereo not drawn),-8
CN(CCOc1ccc(NS(C)(=O)=O)cc1)CCc1ccc(NS(C)(=O)=O)cc1,2
COc1c(O)cc2oc3cc4c(c(O)c3c(=O)c2c1CC=C(C)C)CCC(C)(C)O4,-19
CCCCCC/C=C/CCCCCCCCCC(=O)O,30
CC/C=C(\C(=O)N[C@@H]1C(=O)N2C(C(=O)OCOC(=O)C(C)(C)C)=C(COC(N)=O)CS[C@H]12)c1csc(N)n1,-15
C#C[C@]1(OC(C)=O)CC[C@H]2[C@@H]3CCC4=C[C@@H](OC(C)=O)CC[C@@H]4[C@H]3CC[C@@]21C,3
C=C1CC[C@H]2C[C@@H]1C2(C)C,-17
CC1=NN(c2ccccc2)C(=O)C1,-8
O=C(O)Cc1ccc(O)c(O)c1,-30

# Set 3 — organism: Sarcocystis neurona; observed: parasite growth; concentration: 10 µM; time: 96 h; notes: first screen
Compound,inhibition
CN(C)CCOC(C)(c1ccccc1)c1ccccn1 (stereo not drawn),-8%
COc1ccc(C2CNC(=O)C2)cc1OC1CCCC1 (stereo not drawn),1.3%
Cc1occc(=O)c1O,-10.2%
O=C(NCCO[N+](=O)[O-])c1cccnc1,4.1%
Cc1noc(NS(=O)(=O)c2ccc(N)cc2)c1C,-9.8%
CN1[C@@H]2CC[C@H]1C[C@@H](OC(=O)c1c[nH]c3ccccc13)C2,16.5%
Nc1nc(F)nc2c1ncn2[C@@H]1O[C@H](CO)[C@@H](O)[C@@H]1O,1.1%
CN1CCN(C2=Nc3cc(F)ccc3Cc3ccccc32)CC1,10.4%
CS(=O)(=O)c1ccc(C2=C(c3ccccc3)C(=O)OC2)cc1,0.9%

# Set 4
# Structure (SMILES): CC(=O)N[C@@H](Cc1c[nH]c2ccccc12)C(=O)N[C@@H](CCC(=O)C=[N+]=[N-])C(=O)OC(C)C
host,sample,route,dose,time,notes,tumour volume
mouse,MC-38 rechallenge tumour,,0.26 mg/kg,day 0 after injection,,0 mm3
"mice, MC-38 tumour rechallenge",,,1 mg/kg,day 35 after injection,,0 mm3
"mouse, EL4 tumour",,subcutaneous,0.3 mg/kg,day 10,,475 mm3 and 432 mm3 and 222 mm3 and 381 mm3 and 810 mm3 and 776 mm3
"C57BL/6 CES1-/- mouse, EL4 tumour",,intravenous,1 mg/kg DON equivalent,treatment day 10,5 days per week,176 mm3 and 116 mm3 and 184 mm3 and 424 mm3 and 609 mm3 and 161 mm3 and 502 mm3 and 399 mm3
"mice, MC-38 tumour rechallenge",,,1 mg/kg,day 43 after injection,,0 mm3
"mice, MC-38 tumour rechallenge",,,0.26 mg/kg,day 14 after injection,,0 mm3
"C57BL/6 CES1-/- mouse, EL4 tumour",,intravenous,1 mg/kg DON equivalent,treatment day 11,5 days per week,185 mm3 and 115 mm3 and 150 mm3 and 376 mm3 and 218 mm3 and 214 mm3 and 300 mm3 and 351 mm3
"mice, MC-38 tumour rechallenge",,,0.26 mg/kg,day 46 after injection,,0 mm3

# Set 5 — technique: CellTiter-Glo; concentration: 1 µM; notes: mean of five organoid lines; baseline: DMSO
# Cell line: normal adjacent epithelium patient-derived organoids
Compound,viability [%]
O=C1CCc2cc(Nc3cc(OC4CCOCC4)c([N+](=O)[O-])cc3Cl)ccc2N1,111
CCC(=O)N[C@H]1CC[C@@H](C(=O)N(C)c2ccc(-c3nc4ccccc4o3)cc2)C1,55.8
O=C(O)c1ccc(-c2c[nH]c3ncc(-c4ccccc4)cc23)cc1C1CCCC1,109
Nc1nc(NCc2ccccc2)nc(-c2cccc(CO)c2)n1,119
Cc1nc(C2CCN(C(=O)c3ccc(OC(F)(F)F)cc3N)CC2)c2ncc(N3CCN(C)CC3)cc2n1,110
C[C@@]1(Cc2ccc(C#N)cc2)C(=O)N(c2cc(Cl)cc(Cl)c2)c2ncc(C(=O)NC3(c4nc(C5CCC5)no4)CC3)n21,101
Cn1nc(C(F)(F)F)cc1-c1cnc(N2CCc3cc(S(=O)(=O)Nc4c(F)cc(Cl)cc4F)cc(N4CCCC4=O)c32)nc1,108
CN1CCN(c2cnc3c(C4CCN(C(=O)c5ccc(OC(F)(F)F)cc5N)CC4)ncnc3c2)CC1,99.5
CN(C)C(=O)Cn1cc(-c2ccc(-c3cncc4ccccc34)cc2)cn1,108
C[C@H](c1cccc(C#N)c1)n1cc(Cl)cc(C(N)=O)c1=N,119
CN(c1ccnc(CNc2nc(Nc3ccc4c(c3)CC(=O)N4)ncc2C(F)(F)F)n1)S(C)(=O)=O,108
C[C@H](c1ccc(F)cc1)N(Cc1cccc(C(=O)O)c1)C(=O)c1cnc2ccccc2c1,104
NS(=O)(=O)c1cc(NC(=O)Cc2ccccc2)ccc1Oc1cccc(Cl)c1,110
Cc1cn(-c2cc(NC(=O)c3ccc4c(c3)CN(c3cncnc3)C[C@@H]4C)cc(C(F)(F)F)c2)cn1,99.9
Cn1cnc2c(F)c(Nc3ccc(Br)cc3Cl)c(C(=O)NOCCO)cc21,72.1
C[C@H](c1ccnc(Nc2nc3ccc(-c4cc(N(C)C)ncn4)cc3[nH]2)c1)N1CCN(C(=O)CC(F)(F)F)CC1,96.1
O=C(NNS(=O)(=O)c1ccccc1)c1cc(-c2ccnnc2)ccc1F,119
O=C1c2ccc(Nc3ccc(F)cc3F)cc2CCc2ccc(OC[C@H](O)CO)cc21,125
C[C@H](c1ccc(F)cc1)N(Cc1ccc(Cl)c(C(=O)O)c1)C(=O)c1cnc2ccccc2c1,102
CC1=C(C#N)C(c2ccc3c(c2)c(NC(=O)c2ccccc2C)nn3C)C(C#N)=C(C)N1,97
CN1CCN(C(=O)C(C)(C)c2ccc(C(=O)Nc3cn4cc(-c5cc(C(C)(C)C)cc(C(C)(C)C)c5)ccc4n3)cc2)CC1,102
Cc1noc([C@H]2C[C@@H](c3ccc(C(F)(F)F)cc3)CN(C(=O)N3CCS(=O)(=O)C3)C2)n1,102
CCCCN(Cc1ccccc1)C(=O)c1ccc(S(=O)(=O)Nc2ccccc2)cc1,121
CNC(=O)c1cc(C(=O)N[C@H]2[C@@H]3COC[C@@H]32)cc2c1O[C@@H](CF)[C@@H]2c1ccccc1,104
CN1CCN(Cc2ccc(Nc3ncc(Cl)c(Nc4ccccc4S(=O)(=O)N(C)C)n3)cc2)CC1,2.6
